# Results gathered from unrelated publications.
# Every numbered part comes from another study and shows a few of its results, in no order. Changes are numbered by the printed parent chain.
# UniProt P62837, sequence (whole entry, looked up): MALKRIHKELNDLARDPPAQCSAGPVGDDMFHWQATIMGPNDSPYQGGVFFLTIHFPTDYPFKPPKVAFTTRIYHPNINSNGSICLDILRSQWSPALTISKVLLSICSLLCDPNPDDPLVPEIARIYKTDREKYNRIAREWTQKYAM

# Set 1 — technique: RNAcompete; form: RNA; matrix: in vitro; tested at: 20 nM; notes: 7-mer, probes averaged, single round; reference: mean of 7-mers; reading: higher = stronger binding
# Target: PABPC1L2, full length, GST fusion (mouse, UniProt A0ABA7IW68)
# Residues (chain): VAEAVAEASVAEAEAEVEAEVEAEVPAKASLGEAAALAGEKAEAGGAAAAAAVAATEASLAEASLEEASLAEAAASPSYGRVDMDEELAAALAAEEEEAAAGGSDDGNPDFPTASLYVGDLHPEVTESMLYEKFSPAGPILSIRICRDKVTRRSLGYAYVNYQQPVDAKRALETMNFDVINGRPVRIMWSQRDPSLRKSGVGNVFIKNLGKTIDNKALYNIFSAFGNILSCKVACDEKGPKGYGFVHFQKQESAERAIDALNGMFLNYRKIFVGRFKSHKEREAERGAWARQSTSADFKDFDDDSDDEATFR
Oligonucleotide,7-mer Z-score
AACGAGA,0.294
UUCAGUA,-0.159
GAUUAAU,-0.141
UUGGAAC,-0.0264
UUGAGGC,0.0388
AAAUGUC,0.767
GACAGGA,0.0823
CCUUCAU,-0.287

# Set 2 — target: CCNB1, cyclin fold, Cln2 fusion (human); technique: yeast growth competition, sequencing; matrix: yeast; notes: strong parent motif; reference: not given; reading: higher = stronger binding; starting sequence: viral docking peptide; TSVRRALFTGGSD
Change,normalised enrichment score
TSVRRALFMGGSD [T9M],1.79
TSPRRALFTGGSD [V3P],0.734
TSVRRALFTPGSD [G10P],1.72
TSVFRALFTGGSD [R4F],0.292
TSVRRHLFTGGSD [A6H],0.55
TSVRRALTTGGSD [F8T],-0.0695
TSVRRACFTGGSD [L7C],0.427
TSVRSALFTGGSD [R5S],0.152
TSVRRKLFTGGSD [A6K],1.56
TSVTRALFTGGSD [R4T],1.05
TSVHRALFTGGSD [R4H],0.0407
TSVYRALFTGGSD [R4Y],0.759
TSVRRALFTGPSD [G11P],2.61
TSVRRALFTGGWD [S12W],1.96

# Set 3 — technique: protein binding microarray; form: double-stranded DNA, one strand shown; matrix: in vitro; tested at: not given; reference: not given; reading: higher = stronger binding
# Target: Histone acetyltransferase KAT6A, winged helix 1, GST fusion (KAT6A, Homo sapiens, UniProt Q92794, residues 1-85)
# Notes: 8-mer, flanks averaged, mean of 2 arrays, mostly near background
# Residues (chain): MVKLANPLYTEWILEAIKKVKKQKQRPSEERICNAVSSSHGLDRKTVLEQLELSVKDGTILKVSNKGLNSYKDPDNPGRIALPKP
Oligonucleotide,E-score
AAGCTCGG,-0.00875
AGGATTTC,-0.176
ACGTCGTA,0.015
AACACCTG,-0.193
AGCGAACG,0.154
CTACTCAG,-0.144
GGCATGAC,0.106
ACGTGTCC,0.0713

# Other studies, line by line
Sequence,target,test,system,conditions,scale,measurement,value
QLRRLQEERTCKVCLDRAVSIVFVPCGHLVCAECAPGLQLCPICRAPVRSRVRTF (BIRC7 RING domain (UniProt Q96CA5)),UBE2D2 UBC core domain (UniProt P62837),yeast two-hybrid,yeast,mostly zero background,"reference: not given, higher = stronger interaction",lacZ reporter activity,0
VVARLGVPY,"HLA class I histocompatibility antigen, A alpha chain, allele A*25:01 (Homo sapiens, UniProt P04439)",peptide-MHC binding,peptide,concentration not given,,binding,inactive
